Measured values gathered from unrelated publications.
Parts stem from different laboratories: compare values within a part only. Positions count from the first letter of the parent shown.

Study 1
Target: Sal-like protein 4, full length isoform B (SALL4, Homo sapiens, UniProt Q9UJQ4-2, residues 1-616)
Technique: universal PBM
Molecule type: double-stranded DNA, one strand shown
Matrix: in vitro
Concentration: not given
Notes: 8-mer, flanks averaged, mean of replicates
Reading: higher = stronger binding
Target sequence (chain): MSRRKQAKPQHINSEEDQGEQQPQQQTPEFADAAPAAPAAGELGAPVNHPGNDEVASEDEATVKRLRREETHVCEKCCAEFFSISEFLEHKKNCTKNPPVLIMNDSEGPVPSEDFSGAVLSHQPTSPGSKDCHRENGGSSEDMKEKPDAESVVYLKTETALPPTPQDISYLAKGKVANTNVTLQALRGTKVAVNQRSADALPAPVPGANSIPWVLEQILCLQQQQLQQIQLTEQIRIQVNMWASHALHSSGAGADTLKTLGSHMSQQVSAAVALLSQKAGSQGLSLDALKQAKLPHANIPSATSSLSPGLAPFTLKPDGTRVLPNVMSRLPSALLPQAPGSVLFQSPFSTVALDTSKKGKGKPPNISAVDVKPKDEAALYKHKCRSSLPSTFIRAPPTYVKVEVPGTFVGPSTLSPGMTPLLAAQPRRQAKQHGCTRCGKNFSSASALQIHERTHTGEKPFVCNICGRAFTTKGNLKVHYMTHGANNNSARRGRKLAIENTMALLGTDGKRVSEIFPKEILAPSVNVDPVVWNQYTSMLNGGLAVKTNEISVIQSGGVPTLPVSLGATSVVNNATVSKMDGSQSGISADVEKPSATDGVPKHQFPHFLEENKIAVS
Oligonucleotide | E-score
GGTACCAC | -0.143
GAGCTGAA | -0.124
ACGAGTGG | -0.0311
GAATAGGC | -0.0394
GCGCATTA | 0.139
CCATATCG | 0.151
ACAACCAT | 0.235
CAGCCCCG | -0.31
TCTGACAA | 0.101
CAGCCACG | -0.151
AGATGGTC | -0.177
CAACTAAA | 0.2
CAGGACTC | -0.306
CCGTGGCG | -0.314
AGAGGTTA | 0.206
GGTCATTA | 0.1
CTTTCTCA | 0.214
GAGCCACA | -0.106
CGGAATTA | 0.214

Study 2
Target: Histone acetyltransferase KAT6A, winged helix 2, GST fusion (KAT6A, Homo sapiens, UniProt Q92794, residues 85-181)
Technique: protein binding microarray
Molecule type: double-stranded DNA, one strand shown
Matrix: in vitro
Concentration: not given
Notes: 8-mer, flanks averaged, mean of 2 arrays, mostly near background
Reference: not given
Reading: higher = stronger binding
Construct (chain): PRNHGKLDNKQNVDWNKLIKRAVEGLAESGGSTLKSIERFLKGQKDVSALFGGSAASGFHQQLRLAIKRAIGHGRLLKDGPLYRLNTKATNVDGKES
Oligonucleotide | E-score
GCAATAAC | 0.104
CATGGGGA | 0.025
GATAGTAA | 0.0657
GAGACCGC | 0.0322
ATCCTTCC | -0.261
AACCTATC | -0.174
CGGCCTAC | 0.0092
GTAAGGGA | -0.215
GCAAGCAA | 0.0519
ACAAACCC | 0.059
ATGTACTC | -0.187
AAAGCTTC | -0.115
GGCTTAGA | 0.0217
CTATCCAG | 0.0331
GCATTCCA | -0.0255
GCGGGGAC | 0.15
ATCGCAGG | 0.106
ACAGCGAG | 0.0329
CTAAAGCA | 0.192
ACTGCTAC | -0.0494
CATTCTAG | -0.0557
ACCATGCC | 0.131

Study 3
Sequence: GAPLKKLFTSTGL
Organism: Saccharomyces cerevisiae
Observed: binding
Technique: competitive growth deep sequencing
Molecule type: peptide
Concentration: concentration not given
Reading: direction not given
strain | notes | growth enrichment score
cyclin D3-Cln2 fusion strain | peptide library 1 | 0.134
cyclin E1-Cln2 fusion strain | combined peptide libraries | 1.07
cyclin E1-Cln2 fusion strain | peptide library 1 | 0.482

Study 4
Target: UBE2J1 UBC core domain (UniProt Q9Y385)
Technique: yeast two-hybrid
Matrix: yeast
Notes: mostly zero background
Reference: not given
Reading: higher = stronger interaction
B1: RNF7 RING domain (UniProt Q9UBF6); chain AICRVQVMDACLRCQAENKQEDCVVVWGECNHSFHNCCMSLWVKQNNRCPLCQQDWVVQRIGK
B2: NHLRC1 RING domain (UniProt Q6VVB1); chain MREAEISLLECKVCFEKFGHRQQRRPRNLSCGHVVCLACVAALAHPRTLALECPFCRRACRGCDTSD
B3: RNF17 RING domain (UniProt Q9BXT8); chain SQPWGAAEIQCTRCGRRVSRSSGHHCELQCGHAFCELCLLMTEECTTIICPDCEVATAVNTRQR
B4: CBLL1 RING domain (UniProt Q75N03); chain GEKDDTPVHFCDKCGLPIKIYGRMIPCKHVFCYDCAILHEKKGDKMCPGCSDPVQRIEQCT
B5: SHPRH RING domain (UniProt Q149N8); chain KTSGGVNPEPCPICARQLGKQWAVLTCGHCFCNECISIIIEQYSVGSHRSSIKCAICRQTTSHKEISY
B6: RMND5B RING domain (UniProt Q96G75); chain MKCWYHSVFACPILRQQTSDSNPPIKLICGHVISRDALNKLINGGKLKCPYCPMEQNPADGK
B7: TRIM28 RING domain (UniProt Q13263); chain GAEALELLEHCGVCRERLRPEREPRLLPCLHSACSACLGPAAPAAANSSGDGGAAGDGTVVDCPVCKQQCFSKDIVE
B8: RNF11 RING domain (UniProt Q9Y3C5); chain RDGSEKKIRECVICMMDFVYGDPIRFLPCMHIYHLDCIDDWLMRSFTCPSCMEPVDAALLSS
B9: TRIM68 RING domain (UniProt Q6AZZ1); chain LVEAIVEEVACPICMTFLREPMSIDCGHSFCHSCLSGLWEIPGESQNWGYTCPLCRAPVQPRNLRP
Target sequence (chain): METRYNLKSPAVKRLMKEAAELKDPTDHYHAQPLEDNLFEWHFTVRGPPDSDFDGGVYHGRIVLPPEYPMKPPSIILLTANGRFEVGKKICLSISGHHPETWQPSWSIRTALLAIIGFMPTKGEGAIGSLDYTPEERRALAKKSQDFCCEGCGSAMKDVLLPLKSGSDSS
Sequence | lacZ reporter activity
B1 (RNF7 RING domain) | 0
B2 (NHLRC1 RING domain) | 0
B3 (RNF17 RING domain) | 0
SNNDLASLFECPVCFDYVLPPILQCQSGHLVCSNCRPKLTCCPTCRGPLGSIRNLA (SIAH1 RING domain (UniProt Q8IUQ4)) | 0
B4 (CBLL1 RING domain) | 0
AAQLLEEKLTCAICLGLYQDPVTLPCGHNFCGACIRDWWDRCGKACPECREPFPDGAELR (TRIM65 RING domain (UniProt Q6PJ69)) | 0
B5 (SHPRH RING domain) | 0
B6 (RMND5B RING domain) | 0
PLRRLQEEKLCKICMDRHIAVVFIPCGHLVTCKQCAEAVDRCPMCSAVIDFKQRVF (BIRC8 RING domain (UniProt Q96P09)) | 0
B7 (TRIM28 RING domain) | 0
B8 (RNF11 RING domain) | 0
EIKDYKARLTCPCCNMRKKDAVLTKCFHVFCFECVKTRYDTRQRKCPKCNAAFGANDFHR (RNF20 RING domain (UniProt Q5VTR2)) | 0
FLSKVEETFQCICCQELVFRPITTVCQHNVCKDCLDRSFRAQVFSCPACRYDLGRSYAMQ (UHRF1 RING domain (UniProt Q96T88)) | 0
B9 (TRIM68 RING domain) | 0

Study 5
Target: RNA binding protein fox-1 homolog 2, RRM domain, GST-SBP tag (RBFOX2, Homo sapiens, UniProt O43251-10, residues 100-194)
Technique: RNA Bind-n-Seq
Molecule type: RNA
Matrix: in vitro
Concentration: 365 nM
Notes: natural RNA segment, single round, ends assumed
Reference: no-protein control
Reading: higher = stronger binding
All sequences stand within: GGGAGUUCUACAGUCCGACGAUC … UGGAAUUCUCGGGUGCCAA
Target sequence (chain): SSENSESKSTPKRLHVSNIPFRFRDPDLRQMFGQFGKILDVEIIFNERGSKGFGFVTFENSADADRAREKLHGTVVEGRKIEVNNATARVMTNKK
Oligonucleotide | RBNS enrichment (R)
UCGAUUAAGAAAGAGCACUGGUGGCUGCUUUUCCAGAGAUCCUGAGUUCAAUUCCCAGCAACCACAUGAUGGUUCAUAAUGGGAUCUGAUGCCCUCUUCUGGCAUGCAGG | 1.76
AACAUUGUUUCACUUGGCGGCAUGUUUUUGAAACCUGCUUUAUAGUAACUGGGUGAUUGCCAUUGUGGUAGAGCUUCCACUGCUGUUUAUAAUCUGAGAGAGUUAAUCUC | 0.505
CCCACUCGACGCCUUCCUCAACUGCAGCUGGCCACUAACACUGCUUCUGGGGACUUGGCUGCCAAGUGAUAAAAACGUUAACGACCUUUAAGUACUCUUCCAGAUGAGAG | 0.466
CUCUGAUUUUAAAGUGGUGCAUUUGAUUCCAGCCUUGGUAAUGGAGAGUUUGCAAACACACAGCGGCCCACAGCUUCACGUGGUGGUGUGCAGUGUGAGGCAGCUCCUUG | 0.765
UCUGAAUAAACAACCCCAGCCCACUUAACUAUUCACAUCUUAGAGGCAAAUUCUUGCUAUGUAACUCAGGCUGGCAUCAAAGUCUUAGUCUUUCUGUUGCUGGUUAUUGA | 0.374
UCCACCCCUGUUGAUGAUCAUUCCUGGGAAGGGGUUUCUCGUUCUAUGCAAUCCUAAAGGACGAAACUCACCCAUGGGAGGCCGAAUUCUCCUUGGGAUGAAGAAAUUUC | 0.35
UUCUGUAUACGUAAUUACUCCUGAUUUUCUGAAAUUGCUUCUGGUAGAUAACAGACAAGUCCUAAGCAGUGUUCCACUAAGGGUGGUUCCAGGCCUGCCUGCCGUGGAGU | 0.721
UGGAUUCUAUCCCAGACCCAGGUUUUCUAGUUCAGAAGACUAACCAGCUUAGUCAGAAGAUGGUUCCAUGGAAGAAAAAGGCCAAGGAGUUUGAAGAUUUUUCUUCUAGA | 0.335
UGGUUUUAUCUAAUAGUUUUACUAUGGAAAUCGCCUUUUGAUAUUAAAGCCAGAUUUUAGAGGUUUGAUAUGUUUGGUCUCAGGAGCUCAAAAGAAGUAGCUUUUUCCAG | 0.704
CUGCUAAUUGUCGAGAGAGAAUUCAGUUGUGUGCUGUCUGGCUGCUGUGCCUUCUCAGCAGCACUUUUGCUGUACAUACAAUGGAAAUAAAGACCUCAGCUAGAAACCUG | 0.399
AAUGAUGGUAAAACAGCAUCAUCAGUAAGCUAUCUUAUAUGCCUCAUCCUGUGAGUUUGAGCUUCAGGAAACAUGAGUAAAAGUAUAUGUAAUGUAUAUAGUCGUAUAUG | 0.284
AUUUUAAGAAUUCUCACUUGGCCUUUAGCACACCCGCCACCCCCAAGUGGGUGUGGAUAAUGCCAUGGCCAGCAGGGGGCACUGUUGAGGCGGGUGCCUUUCCACCUUAA | 0.235

Study 6
Target: ABI1, truncated, D143A, DHFR fusion (Arabidopsis thaliana)
Technique: DHFR PCA, deep sequencing
Matrix: yeast
Notes: methotrexate growth selection, single substitutions
With: (+)-ABA 0 µM
Reference: wild-type fitted maximum
Reading: higher = stronger binding
Starting sequence: PYL1, truncated, DHFR fusion (Arabidopsis thaliana); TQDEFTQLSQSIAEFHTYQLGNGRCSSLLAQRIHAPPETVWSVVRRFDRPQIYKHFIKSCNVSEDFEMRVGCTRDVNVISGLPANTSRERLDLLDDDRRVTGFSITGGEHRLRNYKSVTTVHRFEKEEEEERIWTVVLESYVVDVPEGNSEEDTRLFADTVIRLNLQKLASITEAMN
Variant | relative binding score [%]
R113E | 9.68
T17G | -1.2
E131Q | 44
T17Q | 8.41
Q51E | 13.2
N165Y | 0.388
G107W | -7.84
E89N | -1.02
V161M | 72.4
P36N | 7.84
V78M | 61
N114H | 8.81
F56H | 0.864
L112G | -3.49
V100Y | -9.36
Q10Y | -0.147
